{"data": "Assay results gathered from unrelated publications", "note": "A part holds a random share of what one study measured. Positions count from the first letter of the parent shown."}
{"data": "Sample 1", "target": "Histone acetyltransferase KAT6A, both winged helices, GST fusion (KAT6A, Homo sapiens, UniProt Q92794, residues 1-181)", "technique": "protein binding microarray", "molecule type": "double-stranded DNA, one strand shown", "medium": "in vitro", "tested at": "not given", "notes": "8-mer, flanks averaged, mean of 2 arrays, mostly near background", "reference": "not given", "reading": "higher = stronger binding", "Construct (chain)": "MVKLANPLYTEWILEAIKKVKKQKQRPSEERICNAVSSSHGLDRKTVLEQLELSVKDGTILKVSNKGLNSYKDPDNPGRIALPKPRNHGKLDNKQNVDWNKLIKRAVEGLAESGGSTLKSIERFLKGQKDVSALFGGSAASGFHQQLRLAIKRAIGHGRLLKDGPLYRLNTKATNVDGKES"}
{"Strand": "GTATGTAA", "E-score": -0.0712}
{"Strand": "ATTACAAT", "E-score": -0.0255}
{"Strand": "TATTGCAA", "E-score": -0.000155}
{"Strand": "GTAAATAC", "E-score": 0.0574}
{"Strand": "CCTCTAGA", "E-score": -0.0739}
{"data": "Sample 2", "target": "Ras GTPase-activating protein-binding protein 1, C-terminal RGG region (G3BP1, Homo sapiens, UniProt Q13283)", "technique": "RNA Bind-n-Seq", "molecule type": "RNA", "medium": "in vitro", "tested at": "1 µM", "notes": "whole 134-nt RNA, ends assumed", "together with": "150 mM KCl", "reference": "input library", "reading": "higher = stronger binding", "constant ends, left off below": "GGGAGUUCUACAGUCCGACGAUC … UGGAAUUCUCGGGUGUCAAGG", "chain of UniProt Q13283 (whole entry, looked up)": "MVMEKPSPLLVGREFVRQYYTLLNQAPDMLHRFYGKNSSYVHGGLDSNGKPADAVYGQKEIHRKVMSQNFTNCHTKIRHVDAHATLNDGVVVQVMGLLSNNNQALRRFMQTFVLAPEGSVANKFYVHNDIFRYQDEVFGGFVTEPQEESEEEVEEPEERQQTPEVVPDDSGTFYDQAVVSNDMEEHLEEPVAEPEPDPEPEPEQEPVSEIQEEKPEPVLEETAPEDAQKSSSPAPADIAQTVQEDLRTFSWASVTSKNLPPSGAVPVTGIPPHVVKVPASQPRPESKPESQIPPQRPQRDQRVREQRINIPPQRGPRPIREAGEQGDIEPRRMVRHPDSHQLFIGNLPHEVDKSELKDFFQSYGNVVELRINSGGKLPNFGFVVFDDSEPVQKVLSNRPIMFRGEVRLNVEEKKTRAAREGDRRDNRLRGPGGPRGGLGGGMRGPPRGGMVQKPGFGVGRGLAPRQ"}
{"Strand": "CCUGUGCUACACAUCGUAUGUACCGAAUCGGGAAAAAAAGGAAAAAAAGGAAAAAAAGGGAAAGUAUUAUGUUACGCCGUUCGGAUCUGC", "log2 enrichment": -1.99}
{"Strand": "ACCAUGCAGGUGGGCAUCUUUGGGAAGUGGAAAAAGGGGGGGAUAGGGAGGGGGGUAACACUUUGGGAACAGGUGGUCCCAGGUCGUUUC", "log2 enrichment": -0.899}
{"Strand": "AGUCCUGUGCUACACAUCGUAUGUACCGAAUCAAAUUUAAACCCCCAAAUUUUUAAAAAAGUAUUAUGUUACGCCGUUCGGAUCUGCACU", "log2 enrichment": -0.86}
{"Strand": "AAGUCCUGUGCUACACAUCGUAUGUACCGAAUCGGUUUUGGGUUUUGGGGUUUUGGAAAGUAUUAUGUUACGCCGUUCGGAUCUGCACUU", "log2 enrichment": -1.26}
{"Strand": "UGGCCCUGGUGGCAUGCGGGGAGGAAGAGGUGGCCUCAUGGAUCGUGGUGGUCCCGGUGGAAUGUUCAGAGGUGGCCGUGGUAGAGACAG", "log2 enrichment": 4.12}
{"data": "Further values, each from its own experiment", "P1": "CDC25A docking peptide (human); PPHRRRLLFACSP"}
{"Substance": "PhoQ, residues 284 288 289 292 302 303 TGYLSA", "target": "PhoP, residues 12 14 15 18 19 SYFRT (Escherichia coli, UniProt P23836)", "test": "Sort-seq, item: YFP reporter", "system": "E. coli", "conditions": "PhoQ-PhoP variant library, together with: 10 µM Mg2+", "scale": "reference: high Mg2+ state, higher = stronger signaling", "measurement": "fold induction", "result": 13.7}
{"Substance": "P1 R4C", "target": "CCNB1, cyclin fold, Cln2 fusion (human)", "test": "yeast growth competition, sequencing", "system": "yeast", "conditions": "weak parent motif", "scale": "reference: not given, higher = stronger binding", "measurement": "normalised enrichment score", "result": 0.923}
